Measured values from different studies.
Each numbered part is a random draw from the data of one study; scales do not carry over between parts.

Block 1 — method: RNA Bind-n-Seq; molecule type: RNA; matrix: in vitro; tested at: not given; relative to: input RNA pool; direction: higher = stronger binding
Target: RING finger protein unkempt homolog, zinc fingers 1-6, GST-SBP tag (UNK, Homo sapiens, UniProt Q9C0B0, residues 30-357)
Chain of UniProt Q9C0B0 (30-357, looked up): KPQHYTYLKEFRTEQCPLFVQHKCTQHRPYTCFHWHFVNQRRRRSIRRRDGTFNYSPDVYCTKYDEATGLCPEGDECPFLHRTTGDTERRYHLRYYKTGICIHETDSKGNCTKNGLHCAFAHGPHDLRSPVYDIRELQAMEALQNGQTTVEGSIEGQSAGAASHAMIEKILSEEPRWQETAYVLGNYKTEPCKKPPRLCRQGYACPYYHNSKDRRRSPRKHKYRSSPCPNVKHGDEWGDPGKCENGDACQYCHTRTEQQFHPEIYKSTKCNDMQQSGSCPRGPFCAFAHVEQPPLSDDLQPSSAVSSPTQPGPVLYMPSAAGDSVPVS
Notes: RNA with constant flanks, human and mouse sites, ends assumed
`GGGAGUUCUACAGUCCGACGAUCCCUGAAGCUUUUGAUCCUAAAAGGUUAUUAGAAGAAUUUGUGAAUCAUAUUCAAGAACUGCAGAUAAUGGAUGAAAGGAUUCAAAGGAAAGUGGAGAAAUUAGAACAACAGUGUCAGAAGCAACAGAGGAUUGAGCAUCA` has a bound/input enrichment of 0.37 ratio.
With `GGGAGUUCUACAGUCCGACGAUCGUUCCAAAGUGAGGUCCCUCCCAAAGUUGUUUUCGUGUGAGGCAGAGAAAGCCACACUCUGAAUACAUUUUAUGUCUCAGGAAUUCACAUUCCAGGUUCAGGAAUUUUAUUCCAAAGUCCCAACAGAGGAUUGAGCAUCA` the bound/input enrichment was 0.229 ratio.
The bound/input enrichment of `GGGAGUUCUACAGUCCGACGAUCACACAGCAGGGUGAAGUCAAGAUUCCUGACCCACCCAAAAGUAGAGAGACAGCCACGUCAAGUGCUUGCCGGGCGGCUUACCAAGCGGCCAUCCGAGGCGUGGGUAGUGCCCAGAGCCGUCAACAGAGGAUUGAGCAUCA` is reported as 0.128 ratio.
The bound/input enrichment of `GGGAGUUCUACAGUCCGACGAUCGAGCAGAGAGUGGUGAGGCCAGCCACUGCCUGUGCGUGCAGUGCAGUGUUGGUAAGAGAAGCCUACCUAGGAGCUGGUGAUGAUGAAGGCUGGGCUGGGAAAGCAUUCUCUGUCCUGCUCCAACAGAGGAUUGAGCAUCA` is reported as 0.14 ratio.
The bound/input enrichment of `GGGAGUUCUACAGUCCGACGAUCAGUAACACAGCAUCUGGUGGAAUGACACGACGAAAUACUUAUGUUUGCAGUGAGAGAACUACAGCUGAUAGACACUCAGUGAUUCAGAAUGGCAAAGAAAACAGCACUAUUCCUGAUCAGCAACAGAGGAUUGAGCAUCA` is reported as 0.115 ratio.
`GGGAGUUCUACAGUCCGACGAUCCCGCCCAUCCGCCUUUCUCUCGGAAUAUUUUGGGAUCCAACCCUCUCUCUAAUUUUGGCCCCUAAUAACUCACUGAGACCCUAAAACAAUGGGCUGACGCUUAUUCUUUUGCCCGCGAUCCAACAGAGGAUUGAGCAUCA` gave a bound/input enrichment of 0.56 ratio.
For `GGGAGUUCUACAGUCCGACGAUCUGGCUACUAUAAAACUAUGUACCACUCUCAGAAUAUUCUUAGGCUUUUUUUUUUUCAAGUUAUAGAUUUGCUUAAAGUGAGGUUUUUUGGUGUGUGCUUUUUUGUUGUCUUUUGACCCUUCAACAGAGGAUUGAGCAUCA`, the bound/input enrichment was 3.52 ratio.
For `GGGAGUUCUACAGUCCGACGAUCUGAAUUUUCAAUGUUUAAUUGACAUGGAUCGGAUCUUAGCAUGGUCUUUUCUGUGACUGCUAGCACUGUAUUGUAAUUUUUCCAUUUUAAGCCUUUUCAUUGCACCUCCAGCCCCUCUGCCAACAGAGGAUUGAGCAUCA`, the bound/input enrichment was 2.38 ratio.
`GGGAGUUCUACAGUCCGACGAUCCUUGAUUAUCUCAAGAGGGAAUGCGAGGCAAAAAGUGAAGUUAUGUUUUUUGCUGAUGCUACUAGCCACUUGGAAGAGAAGAAGAGGAAGAGGAAAAAGAGGGAGAAGUUGAUUCUAACGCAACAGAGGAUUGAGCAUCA` gave a bound/input enrichment of 0.303 ratio.
For `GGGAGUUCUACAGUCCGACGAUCGAUUUUGAAACUGAGCACAAGUUGGAACCUGUAUUUGACUCUCCAAGGAUGUCCCGCCGCAGCUUGCGUCUGGUCACAACAGCUUCGUACAGCAGUGGGGACAGCCAGGCUAUUGAUUCGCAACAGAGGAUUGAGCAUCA`, the bound/input enrichment was 0.0844 ratio.
With `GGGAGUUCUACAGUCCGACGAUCUGGCGCCUGCGCUCCCCACUCGUGUUUUUAAGUGUAUUUUUAUAAGAUACAUGUAUUUACAAUUGAGCUUUUGUUACAUAAUGCUGAAAUGCUACUGGAGAUUAUGAAAAAUGUUUCAAUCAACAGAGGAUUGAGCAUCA` the bound/input enrichment was 0.145 ratio.

Block 2 — method: RNA Bind-n-Seq; molecule type: RNA; matrix: in vitro; tested at: 365 nM; relative to: no-protein control; direction: higher = stronger binding
Target: RNA binding protein fox-1 homolog 2, RRM domain, GST-SBP tag (RBFOX2, Homo sapiens, UniProt O43251-10, residues 100-194)
Notes: natural RNA segment, single round, ends assumed
Target sequence (chain): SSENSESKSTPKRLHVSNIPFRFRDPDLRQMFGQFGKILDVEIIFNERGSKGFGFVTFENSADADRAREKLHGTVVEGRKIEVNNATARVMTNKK
Under “RBNS enrichment (R)”, `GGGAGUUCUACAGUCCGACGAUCCCAGAAGCUCUCUUCUGCUUCAAAACCUGGGAUCUCUGGCAUUACCCUAUUGGGAUGGACCGCUGGACAGCAAUGCUCGAGUUUGUGAAUUUGGAGAGAUACUCAAAAGAUGGAAUUCUCGGGUGCCAA` is recorded as 0.323.
`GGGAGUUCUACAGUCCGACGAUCCUCGGCAUCUCUCGUAUGUGGCAUAUUGCUUUUGCCACUUUCCUAUCCAGCAGACAUCAAAGCAAAACUAAAAGGUAGAUAUCUGGAAUGAAUGUAUAUGUUGUAAUUGAUGGAAUUCUCGGGUGCCAA` — result for “RBNS enrichment (R)”: 0.875.
For `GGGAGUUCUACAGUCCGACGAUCUUGCACAUGCUAGGCAAGCUCUCUACCCUGAGCUACGUACAUCCUAGCCCUUAGAACUACCACCCUGAAGCAUCUUUGUUUCCUGUGUUCAGACGCAGACGAAGACCAACUGGAAUUCUCGGGUGCCAA`, “RBNS enrichment (R)” read 0.332.
Under “RBNS enrichment (R)”, `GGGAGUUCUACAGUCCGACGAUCCAGGUAACAGGAGUACCUUUGUUUUAACAGACAAAAGUAAUCUCCAGGCCUUAGGGACUCAUAAAGAUAUGAGUACAUUGCUUAUUGGAAACUUGUAGGUUCACAUAUUAUGGAAUUCUCGGGUGCCAA` is recorded as 0.334.
`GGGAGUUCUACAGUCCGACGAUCAAAUCAUUAAGGAUGUAAAAGCCAUGCUUGCCUAUUUGCUGUAUACAUGUAAUGAAAUUGUAGAUAAAGUGUAGUGCAUUGAAACAAAUGAACAAAAAGUAGAUACUUUUUGGAAUUCUCGGGUGCCAA` — result for “RBNS enrichment (R)”: 3.57.
For `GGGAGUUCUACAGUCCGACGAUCCAUCCCAGUGGCCGGGGAGUCACCCCCUCACGCAGAGACCUUGCCUGUGCCUCAGAUGGCUUGCUGCCAGCUGUCAGAUACACAUAGAAGCUUAUAUCUCUCAAAUUAAUUGGAAUUCUCGGGUGCCAA`, “RBNS enrichment (R)” read 0.487.
For `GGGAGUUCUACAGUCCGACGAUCGUCUCCUGUUGUUUCUGCCACAGGGACUUCCUUGGUCCCUUCAGGGAAGCCCUCAACUCAUCUCUGAACUUAGAAUCUCAUCCUUAGGGCUCAGAGAGUCCCAGCCCUAAUGGAAUUCUCGGGUGCCAA`, “RBNS enrichment (R)” read 0.348.
`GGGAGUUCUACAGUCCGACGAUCAAGAAUCCAGAGGUGAAGAGGGAGACGGCUCUUAGCUGCGUUCAAGGCGGGGCCCUCGGGAGCCCAGGUGCAGAGCGAGGCCGUGUCCAGGAGCCGGCGUCCCUCAGUGCUGGAAUUCUCGGGUGCCAA`: “RBNS enrichment (R)” 0.502.
`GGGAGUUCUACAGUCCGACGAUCACAGAUGGUAUCCCUUCCUGGAUCAUUCAUUUCACCUUGGUUUCUAACUUUAGGUUUACUUUCACUUGUUAUUUGACUUAGCAGGUGCAACAAAAACAAGAAACAAAUGUUGGAAUUCUCGGGUGCCAA`: “RBNS enrichment (R)” 0.315.

Block 3 — method: protein-binding microarray; molecule type: double-stranded DNA, one strand shown; matrix: in vitro; tested at: 2200 nM top; notes: 60-bp whole probe; added: salmon DNA 0.4 mg/ml; relative to: random background probes; direction: higher = stronger binding; all sequences stand within: GCCTAGCAC … GTCTTGATTCGCTTGACGCTGCTG
Target: Interferon regulatory factor 7, full length, phosphomimetic (IRF7, Homo sapiens, UniProt Q92985, residues 1-503, S471D/S472D/S475D/S476D/S477D/S483D/S484D/S487D)
Target sequence (chain): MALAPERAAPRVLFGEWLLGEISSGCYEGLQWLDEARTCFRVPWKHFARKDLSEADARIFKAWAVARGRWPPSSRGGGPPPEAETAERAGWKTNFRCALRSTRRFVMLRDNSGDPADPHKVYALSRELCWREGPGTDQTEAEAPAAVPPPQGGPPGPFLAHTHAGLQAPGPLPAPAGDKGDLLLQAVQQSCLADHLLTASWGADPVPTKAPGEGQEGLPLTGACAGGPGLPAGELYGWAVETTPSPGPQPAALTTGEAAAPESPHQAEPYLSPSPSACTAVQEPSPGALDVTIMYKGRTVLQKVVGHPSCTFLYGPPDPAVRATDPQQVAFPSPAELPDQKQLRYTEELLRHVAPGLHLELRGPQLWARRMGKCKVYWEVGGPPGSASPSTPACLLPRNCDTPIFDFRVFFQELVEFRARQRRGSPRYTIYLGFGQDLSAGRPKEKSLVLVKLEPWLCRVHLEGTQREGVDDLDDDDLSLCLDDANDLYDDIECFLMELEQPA
For `GACCGTTCCGGTTTCGGGACGTGCTAG`, “fitted relative affinity” read 4.75 z-score.
`TCATTAATCACATATACAACTGTGCTA` — result for “fitted relative affinity”: 0.287 z-score.
For `GACGGTTTCGGTTTCGGCACGTGCTAG`, “fitted relative affinity” read 13.7 z-score.
For `TTAGGTTTCGGGACTGGGTAAGTGCTA`, “fitted relative affinity” read 3.23 z-score.
`TCACTTATAAATAGCACACTGTGCTAG`: “fitted relative affinity” 0.0692 z-score.
`TTAGATATCCTTCTCCTTTAGTGCTAG` — result for “fitted relative affinity”: 1.26 z-score.
Under “fitted relative affinity”, `GACCGACTGGACACTGGGGACGTGCTA` is recorded as -0.702 z-score.
`ATTTAAGTTTCACTCTGCATGGTGCTA`: “fitted relative affinity” 3.98 z-score.
`GACGAACTGGGGTATCGCGACGTGCTA`: “fitted relative affinity” -0.0455 z-score.
`TTGGAACTGAGTCTCGATTAGTGCTAG` — result for “fitted relative affinity”: 0.143 z-score.
For `GTGTGTGTCTGATTATTTACGTGCTAG`, “fitted relative affinity” read 1.24 z-score.
`GACGGTATCGGGTTTCCGGACGTGCTA`: “fitted relative affinity” 0.651 z-score.

Block 4 — method: protein binding microarray; molecule type: double-stranded DNA, one strand shown; matrix: in vitro; tested at: not given; relative to: not given; direction: higher = stronger binding
Target: Histone acetyltransferase KAT6A, winged helix 2, GST fusion (KAT6A, Homo sapiens, UniProt Q92794, residues 85-181)
Notes: 8-mer, flanks averaged, mean of 2 arrays, mostly near background
Target sequence (chain): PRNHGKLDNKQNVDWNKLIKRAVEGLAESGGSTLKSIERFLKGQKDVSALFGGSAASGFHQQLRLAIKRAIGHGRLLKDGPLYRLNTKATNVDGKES
`CGTAGTAC` has an E-score of -0.0516.
With `ATGCTGTA` the E-score was 0.0824.
`GCCCAAAA` gave an E-score of 0.11.
`CGATACTA` gave an E-score of 0.0681.
For `CAATGGCC`, the E-score was -0.278.
For `AGTGAGCG`, the E-score was 0.0347.
For `CGCCACCG`, the E-score was 0.0248.
`GCCTCTAC` has an E-score of -0.0469.
For `AAAGGTAT`, the E-score was -0.157.
The E-score of `TAGCTGCA` is reported as -0.112.
For `AGCCGCTG`, the E-score was 0.0692.
With `ACGAATAA` the E-score was -0.0271.
For `ATTTGTAC`, the E-score was -0.0273.
`CTTTAGCA` has an E-score of 0.157.
With `GTAAGGAC` the E-score was -0.0356.
`ACGTATAG` has an E-score of -0.121.
`AATCTGTA` gave an E-score of -0.0857.
With `CCGGATTA` the E-score was 0.112.
The E-score of `ACTTTGCT` is reported as -0.0108.
For `CTCGAGAA`, the E-score was 0.0485.

A few entries again (block 2):
Under “RBNS enrichment (R)”, `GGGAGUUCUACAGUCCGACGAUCCAGGUAACAGGAGUACCUUUGUUUUAACAGACAAAAGUAAUCUCCAGGCCUUAGGGACUCAUAAAGAUAUGAGUACAUUGCUUAUUGGAAACUUGUAGGUUCACAUAUUAUGGAAUUCUCGGGUGCCAA` is recorded as 0.334.
`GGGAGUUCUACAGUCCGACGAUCCUCGGCAUCUCUCGUAUGUGGCAUAUUGCUUUUGCCACUUUCCUAUCCAGCAGACAUCAAAGCAAAACUAAAAGGUAGAUAUCUGGAAUGAAUGUAUAUGUUGUAAUUGAUGGAAUUCUCGGGUGCCAA` — result for “RBNS enrichment (R)”: 0.875.
For `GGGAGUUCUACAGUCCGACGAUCUUGCACAUGCUAGGCAAGCUCUCUACCCUGAGCUACGUACAUCCUAGCCCUUAGAACUACCACCCUGAAGCAUCUUUGUUUCCUGUGUUCAGACGCAGACGAAGACCAACUGGAAUUCUCGGGUGCCAA`, “RBNS enrichment (R)” read 0.332.
